Measured values of several laboratories.
Protocols differ between the studies behind these lines.

O=C(O)CCC(=O)O.[2H]C([2H])([2H])Oc1cc(C)c2[nH]ccc2c1CN1CC[C@@H](C2CC2)C[C@H]1c1ccc(C(=O)O)cc1  Tmax (human, plasma; 300 mg once daily, day 1, multiple ascending dose, median): 4 h
C=CCn1c(=O)c2cnc(Nc3ccc(N4CCN(C)CC4)cc3)nc2n1-c1cccc(C(C)(C)O)n1  Tmax (human; oral, 200 mg once daily, cycle 1 day 17, with: durvalumab 1500 mg IV; median): 3 h
Cl.[2H]C([2H])([2H])CC(=O)c1cnc(NC(=O)C2CC2)cc1Nc1cccc(-c2ncn(C([2H])([2H])[2H])n2)c1OC  Tmax (median; human; oral, 40 mg twice daily, day 1, fasted, tablet, multiple dose): 2.06 h
CCN1CCN(Cc2ccc(Nc3ncc(F)c(-c4cc(F)c5nc6n(c5c4)[C@H](C)CCC6)n3)nc2)CC1  Tmax (human, Phase Ib patients, plasma; 400 mg, multiple doses, median, with: fulvestrant): 5.94 h
CN1C(=O)[C@@H](NC(=O)c2nnc(Cc3ccccc3)[nH]2)COc2cccnc21  Tmax (human, plasma; oral, 50 mg once daily, day 14, median): 3.01 h
CO[C@H]1C[C@@H]2CC[C@@H](C)[C@@](O)(O2)C(=O)C(=O)N2CCCC[C@H]2C(=O)O[C@H]([C@H](C)C[C@@H]2CC[C@@H](OC(=O)NCCOCCOCCOCCOCCOCCOCCOCCOCCC(=O)N3CCc4cc(Cn5nc(-c6ccc7oc(N)nc7c6)c6c(N)ncnc65)ccc4C3)[C@H](OC)C2)C[C@@H](O)[C@H](C)/C=C(\C)[C@@H](O)[C@@H](OC)C(=O)[C@H](C)C[C@H](C)/C=C/C=C/C=C/1C  Tmax (human, plasma; intravenous, 12 mg, cycle 1 day 1, arithmetic mean): 0.91 h
CCn1cc(C(=O)N2CCOCC2)c(=O)c2cc(NC3Cc4ccccc4C3)cnc21  Tmax (human, fasted, plasma; oral, 900 mg single dose, tablet, median): 1.5 h
NC1(C(=O)N[C@@H](CCO)c2ccc(Cl)cc2)CCN(c2nc[nH]c3nccc2-3)CC1  Tmax (LC-MS/MS, non-compartmental; human patients, plasma; 160/480 mg cohort, cycle 0, median, with: enzalutamide): 2.1 h

Repeated from above:
C=CCn1c(=O)c2cnc(Nc3ccc(N4CCN(C)CC4)cc3)nc2n1-c1cccc(C(C)(C)O)n1  Tmax (human; oral, 200 mg once daily, cycle 1 day 17, with: durvalumab 1500 mg IV; median): 3 h
